Experimental data collected from several papers.
Lines come from different studies, so protocols differ. ± marks the error that the study gave.
MET M1250T: Hepatocyte growth factor receptor (MET, Homo sapiens, UniProt P08581, M1250T)
MET: Hepatocyte growth factor receptor (MET, Homo sapiens, UniProt P08581)
MET Y1235D: Hepatocyte growth factor receptor (MET, Homo sapiens, UniProt P08581, Y1235D)

| Structure (SMILES) | target | assay | conditions | how to read | remaining activity [%] |
| --- | --- | --- | --- | --- | --- |
| CCCOc1ccc(OC)c(F)c1C(=O)c1ccc(C(=O)N[C@@H]2CNC[C@H]2NC(=O)c2ccc3[nH]ncc3c2)cc1 | MET M1250T | enzyme activity | 10 µM |  | 76 |
| CC#CC(=O)N1CCC[C@H]1c1nc(-c2ccc(C(=O)Nc3ccccn3)cc2)c2c(N)nccn12 | MET | kinase activity, inhibitor, HotSpot radiometric | 100 nM, added: ATP 10 µM |  | 99 ± 6.7 |
| COc1cc(-c2cncc3c2CN(C)Cc2cc(N4CCNCC4)ccc2-3)cc(OC)c1OC | MET (Homo sapiens, UniProt P08581, D1228N) | kinase activity | 1 µM, added: ATP 10 µM | reference: DMSO control | 105 |
| COc1cc(N2CCN(C)CC2)ccc1Nc1nc(N)n(C(=S)NCc2c(Cl)cccc2Cl)n1 | MET Y1235D | enzyme activity | 10 µM | reference: control | 0.2 |
| Cc1cc(Nc2cc(N3CCN(C)CC3)nc(Sc3ccc(NC(=O)C4CC4)cc3)n2)[nH]n1 | MET | kinase activity, KinaseProfiler | 0.03 µM, species human | reference: control | 104 |
| C1=C/COCc2cc(ccc2OCCN2CCCC2)Nc2nccc(n2)-c2cccc(c2)COC/1 | MET Y1235D |  | concentration not given | reference: untreated control | 100 |
| COc1ccc(F)cc1C(=O)NCc1ccc(-c2nn([C@@H](C)C(F)(F)F)c(N)c2C(N)=O)cc1 | MET | kinase activity, inhibitor, HotSpot radiometric | 100 nM, added: ATP 10 µM |  | 100 ± 1.9 |
| COc1cc(N2CCN(C)CC2)ccc1Nc1nc(N)n(C(=O)NCc2c(Cl)cccc2Cl)n1 | MET Y1235D | enzyme activity | 10 µM | reference: control | 1.2 |
| Cc1[nH]c(/C=C2\C(=O)Nc3ccc(F)cc32)c(C)c1C(=O)N[C@H]1CCN(C(=O)N(C)C)C1 | MET | kinase activity, inhibitor | 1 µM | reference: no-compound control | 78 |
| O=C(NC1CCC1)c1ccc2nc(-c3cccc(NS(=O)(=O)NCCN4CCCCC4)c3)cn2c1 | MET M1250T | enzyme activity | 10 µM |  | 100 |
